Assay results gathered from unrelated publications.
Every numbered part comes from another study and shows a few of its results, in no order. Changes are numbered by the printed parent chain.

Series 1
Target: CCNB1, cyclin fold, Cln2 fusion (human)
Technique: yeast growth competition, sequencing
Medium: yeast
Setting: strong parent motif
Reference: not given
Direction: higher = stronger binding
Starting sequence: RBL2 docking peptide (human); STTRRRLFVENDS
Substitution | normalised enrichment score
S13F | 1.54
V9H | 1.15
E10D | 1.93
R6N | 0.0445
R4A | 1.27
S1H | 1.07
D12G | 1.73
T2G | 1.63
L7G | -0.384
D12N | 0.222
T3V | 3.41
R5C | 0.814
R5A L7A | 0.111
F8M | 0.193
T2E | 1.04
T3C | 1.67
N11W | 1.21
F8Y | 0.0995
D12C | -0.0545
T3A | 0.734
T3F | 0.259
V9C | 1.65
F8N | 0.0207
S1G | 1.22
T2W | 0.314

Series 2
Target: Centromere-binding protein 1, full length, His-tagged (CBF1, Saccharomyces cerevisiae, UniProt P17106, residues 1-351)
Chain of UniProt P17106 (whole entry, looked up): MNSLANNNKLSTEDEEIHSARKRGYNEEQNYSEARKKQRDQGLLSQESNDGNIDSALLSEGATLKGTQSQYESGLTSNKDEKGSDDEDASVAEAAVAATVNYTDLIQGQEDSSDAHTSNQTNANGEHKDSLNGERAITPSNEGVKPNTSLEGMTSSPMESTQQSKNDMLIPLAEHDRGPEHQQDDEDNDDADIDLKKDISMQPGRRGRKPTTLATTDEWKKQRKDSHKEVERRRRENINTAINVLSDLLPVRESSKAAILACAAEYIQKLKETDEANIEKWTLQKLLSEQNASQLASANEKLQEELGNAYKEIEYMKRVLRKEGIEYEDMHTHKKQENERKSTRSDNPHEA
Technique: competition protein-binding microarray
Form: double-stranded DNA, one strand shown
Medium: in vitro
Concentration: 2 µM
Setting: whole 60-bp probe, lowest competitor level
With: Pho4 competitor, 0.05 µM
Direction: higher = stronger binding
All sequences stand within: … GTCTTGATTCGCTTGACGCTGCTG
Oligonucleotide | fluorescence intensity
GGTTTGGGTCTTGTTCTCGTGGAGGATCCTTTTGGT | 85.5 a.u.
TGATGAGGACACCGACACGTGCAAACATGGTAGTGC | 1070 a.u.
TTAAGAGATAATCCGCACGTGATGGAATTCATTCTG | 3660 a.u.
GTCTTGTCTCATTGAAAAGTGGGTGTCCCCACTTCA | 69.5 a.u.
CGGGGTTAAGTTTGATAGGTGGGTGGCTTGCAGCAG | 63.1 a.u.
CGTCCTAGCGATTGAGAGGTGGGTGCCATGAGGAAG | 78.5 a.u.
GATTTTTTCAAATGGCACATGCTTCGGAAAAATGAT | 290 a.u.
TTGTTCTTGATCGGCAGCATGACAAGGCTCTAAGTA | 66.2 a.u.
CGCCATCTTGGGCCCCGCGTGTTCCCGCCTTAGCGG | 61 a.u.
GAACTTGAAGCACTTCACGTGCCGATCCTGCGCTCA | 720 a.u.
AAAGCGGTAATTTGGGTGGTGGGTGCAGATATCTAT | 74.7 a.u.
AGAGTTTGCAGAGTCCATGTGTCAAGAATTAGAACT | 105 a.u.

Series 3
Target: ABI1, truncated, D143A, DHFR fusion (Arabidopsis thaliana)
Technique: DHFR PCA, deep sequencing
Medium: yeast
Setting: methotrexate growth selection, single substitutions
With: (+)-ABA 0.032 µM
Reference: wild-type fitted maximum
Direction: higher = stronger binding
Starting sequence: PYL1, truncated, DHFR fusion (Arabidopsis thaliana); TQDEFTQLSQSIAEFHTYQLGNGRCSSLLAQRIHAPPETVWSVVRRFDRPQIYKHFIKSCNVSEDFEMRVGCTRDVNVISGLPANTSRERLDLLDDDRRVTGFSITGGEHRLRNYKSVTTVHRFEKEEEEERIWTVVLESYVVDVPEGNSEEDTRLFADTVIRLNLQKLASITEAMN; partner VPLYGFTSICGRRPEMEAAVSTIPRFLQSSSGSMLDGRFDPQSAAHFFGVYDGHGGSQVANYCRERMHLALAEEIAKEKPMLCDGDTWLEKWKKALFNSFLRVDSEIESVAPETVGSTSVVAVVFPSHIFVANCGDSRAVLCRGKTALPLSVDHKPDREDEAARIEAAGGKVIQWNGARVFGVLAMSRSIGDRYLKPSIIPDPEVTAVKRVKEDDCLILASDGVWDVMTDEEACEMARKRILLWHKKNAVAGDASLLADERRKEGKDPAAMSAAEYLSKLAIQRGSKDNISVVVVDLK
Substitution | relative binding score [%]
T101P | 0.915
S150W | -4.2
A84S | 36.2
S150M | 11.6
C60M | -7.71
I12P | 2.33
R32A | 18.6
G23K | 9.88
E147W | -6.79
E129A | 47.2
V143Y | -4.28
T160K | 3.96
G71D | -3.99
L156G | 6.07
E127Y | 28.9
E128P | 12.1

Series 4
Target: UBE2E1 UBC core domain (UniProt P51965)
Chain of UniProt P51965 (whole entry, looked up): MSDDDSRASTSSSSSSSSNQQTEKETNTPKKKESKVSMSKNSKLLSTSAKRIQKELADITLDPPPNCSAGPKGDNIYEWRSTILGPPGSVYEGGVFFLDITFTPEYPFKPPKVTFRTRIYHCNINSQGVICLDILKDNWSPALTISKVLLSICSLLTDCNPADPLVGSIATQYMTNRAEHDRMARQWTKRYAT
Technique: yeast two-hybrid
Medium: yeast
Setting: mostly zero background
Reference: not given
Direction: higher = stronger interaction
B1: PRKN RING domain (UniProt O60260); chain LIATNSRNITCITCTDVRSPVLVFQCNSRHVICLDCFHLYCVTRLNDRQFVHDPQLGYSLPCVAGCPNSLIKELHH
B2: RNF181 RING domain (UniProt Q9P0P0); chain VIRGSQAELKCPVCLLEFEEEETAIEMPCHHLFHSSCILPWLSKTNSCPLCRYELPTDDDTY
B3: TRIM22 RING domain (UniProt Q8IYM9); chain KEVKMSPQEGQKRDVCEHHGKKLQIFCKEDGKVICWVCELSQEHQGHQTFRINEVVKECQEK
Sequence | lacZ reporter activity
B1 (PRKN RING domain) | 0
B2 (RNF181 RING domain) | 14900
B3 (TRIM22 RING domain) | 0
KITELNPHLMCVLCGGYFIDATTIIECLHSFCKTCIVRYLETSKYCPICDVQVHKTRPLL (BMI1 RING domain (UniProt P35226)) | 0

For quick reference, copied from above (series 3):
Substitution | relative binding score [%]
I12P | 2.33
E147W | -6.79
T101P | 0.915
E128P | 12.1
E127Y | 28.9
S150W | -4.2
C60M | -7.71
